Experimental data gathered from unrelated publications.
Parts stem from different laboratories: compare values within a part only. Substitutions count along the parent as printed.

Sample 1
Target: Probable WRKY transcription factor 50, DNA-binding domain (WRKY50, Arabidopsis thaliana, UniProt Q8VWQ5, residues 99-173)
Technique: DNA-protein interaction ELISA
Form: double-stranded DNA, one strand shown
Sample: in vitro, bacterial lysate
Concentration: not given
Notes: whole dsDNA probe, crude lysate protein
Reference: highest signal in screen
Reading: higher = stronger binding
Target sequence (chain): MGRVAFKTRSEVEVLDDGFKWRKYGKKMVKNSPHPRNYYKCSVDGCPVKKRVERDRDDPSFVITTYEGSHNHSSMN
`AAAAAATGGTTTCAATTTTCCGTCCGAAAA` gave a relative absorbance of 17.9 % of maximum.
For `AAAAAAAGTTCGCGGATTTCGGCCATAAAA`, the relative absorbance was 17.3 % of maximum.
With `AAAAAACTGTGTCCCCGTCCCATCTCAAAA` the relative absorbance was 13.3 % of maximum.
The relative absorbance of `AAAAAATTAGTCCTGATTCAATCTTCAAAA` is reported as 48.8 % of maximum.
With `AAAAAAGAAATACCAGAAACTATCATAAAA` the relative absorbance was 34.6 % of maximum.
For `AAAAAATGAGAGAATTTCCGGTTCAGAAAA`, the relative absorbance was 27.9 % of maximum.
`AAAAAATGCAACGCTCCTTTCCCGCTAAAA` gave a relative absorbance of 24.9 % of maximum.
`AAAAAATTACTCCTAGCCCTCATTCAAAAA` has a relative absorbance of 42.1 % of maximum.
`AAAAAATAGGCGTTATGGCTAACACCAAAA` has a relative absorbance of 11.5 % of maximum.
`AAAAAACCAACTCTCTTTCGGACTATAAAA` gave a relative absorbance of 37.3 % of maximum.
`AAAAAAGGACGTCTTCGGTATGAGTGAAAA` has a relative absorbance of 43.6 % of maximum.
`AAAAAAACCGCGTCGCGGCCCGGGAAAA` gave a relative absorbance of 23.1 % of maximum.
`AAAAAACTACTACCTTTGCCTAAGCGAAAA` gave a relative absorbance of 13.6 % of maximum.
With `AAAAAAATCGTTGTTATCGTATTTATAAAA` the relative absorbance was 29.6 % of maximum.
`AAAAAACTTGCTCCTCCGTTTTACTCAAAA` gave a relative absorbance of 20.7 % of maximum.

Sample 2
Target: ABI1, truncated, D143A, DHFR fusion (Arabidopsis thaliana)
Technique: DHFR PCA, deep sequencing
Sample: yeast
Notes: methotrexate growth selection, single substitutions
Added: (+)-ABA 0.11 µM
Reference: wild-type fitted maximum
Reading: higher = stronger binding
Starting sequence: PYL1, truncated, DHFR fusion (Arabidopsis thaliana); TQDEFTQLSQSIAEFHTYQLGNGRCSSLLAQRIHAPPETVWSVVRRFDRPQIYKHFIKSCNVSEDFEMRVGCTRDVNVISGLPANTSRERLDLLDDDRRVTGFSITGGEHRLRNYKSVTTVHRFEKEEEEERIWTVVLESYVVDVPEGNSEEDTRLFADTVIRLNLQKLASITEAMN; partner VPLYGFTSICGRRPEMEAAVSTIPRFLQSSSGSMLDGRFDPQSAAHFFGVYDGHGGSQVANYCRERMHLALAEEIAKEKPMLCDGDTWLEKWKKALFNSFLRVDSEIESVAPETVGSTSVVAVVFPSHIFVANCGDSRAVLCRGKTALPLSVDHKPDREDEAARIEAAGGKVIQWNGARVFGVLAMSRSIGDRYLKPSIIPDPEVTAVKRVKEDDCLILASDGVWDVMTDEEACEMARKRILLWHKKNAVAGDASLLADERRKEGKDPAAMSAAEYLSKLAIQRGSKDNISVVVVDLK
`L91Q` — result for “relative binding score”: -5.6%.
`T86P`: “relative binding score” 3.91%.
Under “relative binding score”, `S87L` is recorded as 35.9%.
`R163S`: “relative binding score” 20.9%.
`R45P`: “relative binding score” -4.8%.
For `A13E`, “relative binding score” read 45%.
`S80D`: “relative binding score” 4.63%.
Under “relative binding score”, `T101C` is recorded as 20.7%.
Under “relative binding score”, `D159E` is recorded as 8.46%.
`G108Y`: “relative binding score” 3.49%.
Under “relative binding score”, `V142K` is recorded as -8.65%.
Under “relative binding score”, `V137W` is recorded as -2.45%.
For `F66K`, “relative binding score” read 13.1%.
`P146Y`: “relative binding score” -3.97%.
`G102F` — result for “relative binding score”: -5.61%.
For `S171H`, “relative binding score” read 40.4%.
For `S42P`, “relative binding score” read -5.7%.
For `K168E`, “relative binding score” read -0.53%.
`L112D` — result for “relative binding score”: 1.95%.
Under “relative binding score”, `G108S` is recorded as 0.285%.
`G23W`: “relative binding score” -1.45%.

Sample 3
Target: CCND1, cyclin fold, Cln2 fusion (human)
Technique: yeast growth competition, sequencing
Sample: yeast
Notes: strong parent motif
Reference: not given
Reading: higher = stronger binding
Starting sequence: RBL2 docking peptide (human); STTRRRLFVENDS
`STIRRRLFVENDS [T3I]`: “normalised enrichment score” 0.179.
Under “normalised enrichment score”, `STTTRRLFVENDS [R4T]` is recorded as 0.661.
`STTRRRLFWENDS [V9W]`: “normalised enrichment score” 1.44.
`SPTRRRLFVENDS [T2P]`: “normalised enrichment score” 1.41.
Under “normalised enrichment score”, `STFRRRLFVENDS [T3F]` is recorded as -0.45.
`STTIRRLFVENDS [R4I]` — result for “normalised enrichment score”: 2.3.
For `STTRNRLFVENDS [R5N]`, “normalised enrichment score” read -0.055.
`STTRRRLFVRNDS [E10R]` — result for “normalised enrichment score”: -0.00108.
Under “normalised enrichment score”, `STTMRRLFVENDS [R4M]` is recorded as 0.346.
For `STTRARAFVENDS [R5A L7A]`, “normalised enrichment score” read 0.0378.
`STTRRRSFVENDS [L7S]`: “normalised enrichment score” 0.783.
For `STTRWRLFVENDS [R5W]`, “normalised enrichment score” read 0.0646.
`SMTRRRLFVENDS [T2M]`: “normalised enrichment score” 1.15.
`STTRRRLFVEDDS [N11D]`: “normalised enrichment score” 2.23.
For `STTRRHLFVENDS [R6H]`, “normalised enrichment score” read 0.00367.
For `STTRRRTFVENDS [L7T]`, “normalised enrichment score” read -0.0554.
`STTRRRLFVENGS [D12G]`: “normalised enrichment score” 0.234.
Under “normalised enrichment score”, `STTRRRQFVENDS [L7Q]` is recorded as 0.113.
`STTRRRLFVENYS [D12Y]`: “normalised enrichment score” 0.342.
For `STTERRLFVENDS [R4E]`, “normalised enrichment score” read 0.681.
`STTRRRLFVENSS [D12S]`: “normalised enrichment score” 0.673.
`STTRRRLFVENDA [S13A]` — result for “normalised enrichment score”: 0.748.
`STTRRRLFVENMS [D12M]` — result for “normalised enrichment score”: 0.419.
`STTRRRLFVENDG [S13G]` — result for “normalised enrichment score”: 1.36.
Under “normalised enrichment score”, `STTRRRLFEENDS [V9E]` is recorded as 1.19.

Further values, each from its own experiment
`PhoQ, residues 284 288 289 292 302 303 TTCLQL` has a fold induction of 15.5 (PhoP, residues 12 14 15 18 19 NMSSL (Escherichia coli, UniProt P23836); Sort-seq, refers to: YFP reporter; E. coli; PhoQ-PhoP variant library, added: 10 µM Mg2+; reference: high Mg2+ state, higher = stronger signaling).
